Published values of several laboratories.
Each line is one published result; not all experiments were run side by side.
Cell line: SNB-19

C#C[C@@]1(O)[C@@H](CO)O[C@@H](n2cc(Cl)c3c(N)ncnc32)[C@@H]1O
TGI (SRB; NCI-60 screen): 0.294 µM

Cc1n[nH]c2nc(-c3ccc(Cl)cc3)c3c(NC(=O)c4ccccc4)nnc-3n12
cell growth (SRB; 10 µM, NCI60 single-dose screen; relative to: untreated): 89.3%

CCN(CC)c1ccc(C=NNC(=O)CSc2nc3ccccc3c(=O)n2Cc2ccc(S(N)(=O)=O)cc2)c(O)c1
TGI (NCI five-dose screen): > 100 µM

Cn1cncc1C1=CN(c2ncnc3[nH]cnc23)CCS1
TGI (CNS cancer): 200 µM

O=C1NC(c2ccccc2)(c2ccccc2)C(=O)N1Cc1cn(-c2cc3ccccc3oc2=O)nn1
growth percentage (10 µM, CNS cancer cell line, NCI60): 87.9%

Cc1cc(C)n(-c2nc(-c3ccc(Cl)cc3)c3c(NC(=O)c4ccccc4)nnc-3[nH]2)n1
cell growth (SRB; 10 µM, NCI60 single-dose screen; relative to: untreated): 86.9%

CCCCN1CCN(c2ccc3nc(-c4ccc5nc(-c6cc(OC)ccc6OC)[nH]c5c4)[nH]c3c2)CC1
growth percent (SRB; 10 µM, 48 h): 103%

CCOC(=O)CSc1nc(-c2ccc(Cl)cc2)c2c(NC(=O)c3ccccc3)nnc-2[nH]1
cell growth (SRB; 10 µM, NCI60 single-dose screen; relative to: untreated): 91.2%

CCCCN1CCN(c2ccc3[nH]c(-c4ccc5[nH]c(-c6ccc(C(F)(F)F)cc6)nc5c4)nc3c2)CC1
growth percent (SRB; 10 µM, 48 h): -91.4%

O=C1NC(c2ccccc2)(c2ccccc2)C(=O)N1Cc1cn(-c2c3ccccc3nc3ccccc23)nn1
growth percentage (10 µM, CNS cancer cell line, NCI60): 89.4%

Cc1cc(-c2ccccc2)n(-c2nc(-c3ccc(Cl)cc3)c3c(NC(=O)c4ccccc4)nnc-3[nH]2)n1
cell growth (SRB; 10 µM, NCI60 single-dose screen; relative to: untreated): 90.5%

CCCN1CCN(c2ccc3nc(-c4ccc5nc(-c6cc(OC)ccc6OC)[nH]c5c4)[nH]c3c2)CC1
growth percent (SRB; 10 µM, 48 h): 115%

O=C(Nc1nnc2n3c(Cc4ccccc4)n[nH]c3nc(-c3ccc(Cl)cc3)c1-2)c1ccccc1
cell growth (SRB; 10 µM, NCI60 single-dose screen; relative to: untreated): 92.1%

CCCC(CCC)C(=O)OCc1cn(-c2c3ccccc3nc3ccccc23)nn1
growth percentage (10 µM, CNS cancer cell line, NCI60): 96.3%

CCOc1ccc(-c2nc3cc(-c4nc5cc(N6CCN(C)CC6)ccc5[nH]4)ccc3[nH]2)cc1OCC
growth percent (SRB; 10 µM, 48 h): 8.93%

O=C1NCCc2[nH]c(-c3ccncc3)cc21
IC50 (MTS; NCI60 panel): > 10 µM

CCCN1CCN(c2ccc3[nH]c(-c4ccc5[nH]c(-c6ccc(OCC)c(OCC)c6)nc5c4)nc3c2)CC1
growth percent (SRB; 10 µM, 48 h): -39.7%

O=c1ccn(Cc2cn(-c3cc4ccccc4oc3=O)nn2)c(=O)[nH]1
growth percentage (10 µM, CNS cancer cell line, NCI60): 101%
